# Measurements of several laboratories.
# Compare with care: the assays were run in different laboratories. ± gives the spread as reported.
Compound,tested on,test,system,conditions,scale,measurement,value
CC[C@H](C)[C@H](NC(=O)[C@H](CCC(=O)O)NC(=O)[C@H](CCC(=O)O)NC(=O)[C@H](Cc1ccccc1)NC(=O)[C@H](CC(=O)O)NC(=O)CNC(=O)[C@H](CC(N)=O)NC(=O)CNC(=O)CNC(=O)CNC(=O)CNC(=O)[C@@H]1CCCN1C(=O)[C@H](CCCNC(=N)N)NC(=O)[C@@H]1CCCN1C(=O)[C@H](N)Cc1ccccc1)C(=O)N1CCC[C@H]1C(=O)N[C@@H](CCC(=O)O)C(=O)N[C@@H](CCC(=O)O)C(=O)N[C@@H](Cc1ccc(O)cc1)C(=O)N[C@@H](CC(C)C)C(=O)O,,LC-MS/MS,human plasma,"4 h, 25 °C, stability, nominal 240.0 ng/mL",,concentration,243 ± 8.1 ng/mL
CCCC[C@H](NC(=O)CNC(=O)CNC(=O)c1ccc(NN)nc1)C(=O)N[C@H]1CC(=O)NCCCC[C@@H](C(N)=O)NC(=O)[C@H](Cc2c[nH]c3ccccc23)NC(=O)[C@H](CCCNC(=N)N)NC(=O)[C@@H](Cc2ccccc2)NC(=O)[C@H](Cc2c[nH]cn2)NC1=O [technetium-99m labelled],,,"C57 mouse, B16/F1 melanoma-bearing","intravenous, 0.5 h",reference: tumour over skin,tissue uptake ratio,4.67
CCNC(=O)c1noc(-c2cc(C(C)C)c(O)cc2O)c1NC(=O)CCN1CCOCC1,,,"athymic nude mice, MV4-11 xenograft","intravenous or intraperitoneal, 200 mg/kg",,tolerability,not toxic
Cc1ccc(C(C)C)cc1.Cn1ccnc1CNCCNc1ccnc2cc(Cl)ccc12.[Cl-].[Cl][Ru+],,shake-flask method,water/n-octanol,pH 6.6,,distribution coefficient D,2.06 ± 0.78
CC1(C)C(=CC=CC=CC2=[N+](CCCCN=[N+]=[N-])c3ccc(S(=O)(=O)[O-])cc3C2(C)C)N(CCCCCC(=O)O)c2ccccc21,,,PBS,,,fluorescence quantum yield,13%
CC(C)[C@H](NC(=O)CNC(=O)[C@H](CCC(N)=O)NC(=O)[C@H](C)N)C(=O)O,,,human,1 mg/kg single dose,,subjects with moderate adverse events,0%
COc1cc(C(=O)NCCOCCOCCOCCNC(=O)c2ccc([18F])nc2)ccc1NC(=O)C1NC(CC(C)(C)C)C(C#N)(c2ccc(Cl)cc2F)C1c1cccc(Cl)c1F (centres unmarked),,,"athymic male mice, HepG2 xenograft",4 h,reference: tumour over blood,tumour-to-tissue ratio,3.54 ± 1.25
N=C(N)NCc1ccc(C(=O)NCCCC[C@H](NC(=O)N[C@@H](CCC(=O)O)C(=O)O)C(=O)O)cc1[211At],,,"SCID mouse, PC-3 xenografts, heart",14 h,,tissue uptake,0.48 ± 0.12 %ID/g
C/C=C/C=C/C/C=C/CCCCCCCc1cccc(O)c1O,,,"female Kunming mice, tumour-bearing, tumor","intravenous, 10 mg/kg, 4 h",,tissue concentration,38800 ± 3130 ng/g
CCCCCCCCC=CCCCCCCCC(=O)OCC1OC(n2ccc(N)nc2=O)C(F)(F)C1O (centres unmarked),,,"female nude mouse, colon xenograft, patient-derived colon tumour","oral, 50 mg/kg, dosed days 1 and 8",,body weight loss,0%
O=C([O-])C[N+]12CC(=O)[O][Re-2]1[O]P(=O)([O-])C2.[C-]#[O+].[C-]#[O+].[C-]#[O+] (centres unmarked),,HPLC,aqueous solution,"1 d, pH 4, room temperature",,isomer fraction at equilibrium,4%
[2H]C([2H])([2H])C([2H])([2H])C([2H])([2H])OC(C(=O)OC1CCNCC1)(c1ccccc1)c1ccccc1,,item: wound,healthy Japanese male,"oral, 10 mg, 16 days, multiple ascending dose",,adverse drug reactions,0%
CC1COC2=C1C(=O)C(=O)c1c2ccc2c1C(OC(=O)CNC(=O)CN)CCC2(C)C (mixture of isomers),,,n-octanol/water,25 °C,,logP,1.27
CCN(CC)c1ccc2c(-c3ccccc3C(=O)OCCC[18F])c3ccc(=[N+](CC)CC)cc-3oc2c1,,PET imaging,"rat, liver","dose not given, 55 min post injection",reference: value at 5 min,liver radioactivity,30 to 35%
CN(C)C(CNC(=O)Nc1cc(C(F)(F)F)ccc1N1CCOCC1)c1ccncc1 (centres unmarked),,,"mouse, serum","intraperitoneal, 360 mg/kg single dose",,serum GGT,7 U/L
"O=C(c1ccc(F)cc1)C1CCN(C2Cc3c(cccc3OCC[18F])CC2O)CC1 (single isomer, unassigned; (-))",,,"male Sprague-Dawley rat, striatum","intravenous, 60 min",,brain uptake,0.819 %ID/g
CC(C)C[C@H](NC(=O)[C@H](CCCCN)NC(=O)[C@H](CCC(=O)O)NC(=O)[C@H](C)NC(=O)[C@@H](NC(=O)[C@H](CCCCN)NC(=O)[C@H](CC(=O)O)NC(=O)[C@H](Cc1ccc(O)cc1)NC(=O)[C@H](Cc1ccccc1)NC(=O)[C@H](C)NC(=O)[C@H](CCCCN)NC(=O)[C@H](CC(C)C)NC(=O)[C@H](Cc1c[nH]c2ccccc12)NC(=O)[C@@H](N)CC(=O)O)C(C)C)C(=O)N[C@@H](CCCCN)C(=O)N[C@@H](CCC(=O)O)C(=O)N[C@@H](C)C(=O)N[C@@H](Cc1ccccc1)C(=O)N1CCC[C@H]1C(=O)N[C@@H](CC(=O)O)C(=O)N[C@@H](Cc1c[nH]c2ccccc12)C(=O)N[C@@H](C)C(=O)N[C@@H](CCCCN)C(=O)N[C@@H](C)C(=O)N[C@@H](C)C(=O)N[C@@H](Cc1ccc(O)cc1)C(=O)N[C@@H](CC(=O)O)C(=O)N[C@@H](CCCCN)C(=O)N[C@@H](C)C(=O)N[C@@H](C)C(=O)N[C@@H](CCC(=O)O)C(=O)N[C@@H](CCCCN)C(=O)N[C@@H](C)C(=O)N[C@@H](CCCCN)C(=O)N[C@@H](CCC(=O)O)C(=O)N[C@@H](C)C(=O)N[C@@H](C)C(=O)O,,,"cynomolgus monkey male, plasma","intravenous infusion, 75 mg/kg, day 1, 30 min infusion",,Cmax,1230 µg/mL
N=C(N)NCCC[C@@H]1NC(=O)[C@H](CCCCNC(=O)CNC(=O)CNC(=O)CNC(=O)CC[C@H](NC(=O)CCOCCOCCOCCOCCNC(=O)CC[C@H](NC(=O)CN2CCN(CC(=O)O)CCN(CC(=O)O)CCN(CC(=O)O)CC2)C(=O)NCCOCCOCCOCCOCCC(=O)N[C@@H](CCC(=O)NCC(=O)NCC(=O)NCC(=O)NCCCC[C@@H]2NC(=O)[C@@H](Cc3ccccc3)NC(=O)[C@H](CC(=O)O)NC(=O)CNC(=O)[C@H](CCCNC(=N)N)NC2=O)C(=O)NCC(=O)NCC(=O)NCC(=O)NCCCC[C@@H]2NC(=O)[C@@H](Cc3ccccc3)NC(=O)[C@H](CC(=O)O)NC(=O)CNC(=O)[C@H](CCCNC(=N)N)NC2=O)C(=O)NCC(=O)NCC(=O)NCC(=O)NCCCC[C@@H]2NC(=O)[C@@H](Cc3ccccc3)NC(=O)[C@H](CC(=O)O)NC(=O)CNC(=O)[C@H](CCCNC(=N)N)NC2=O)NC(=O)[C@@H](Cc2ccccc2)NC(=O)[C@H](CC(=O)O)NC(=O)CNC1=O [indium-111 labelled],,,female athymic nude mouse,"intravenous, 0.5 h, U-87 MG glioma xenograft",reference: tumour over bone,tumour to bone ratio,5.27 ± 1.35
COc1nc(CC=C(C)CC=CC(C)=CC(C)C(OC2OC(CO)C(O)C(O)C2O)C(C)=CCO)c(C)c(O)c1OC (centres unmarked),,,"C57BL/6 mice, acute kidney injury, kidney","2 mg/kg, 30 min",,concentration,15.3 ± 7.31 ng/mL
CN[C@](C)(C[18F])C(=O)O,DU-145 tumour model,,"host not given, tumour","15 min, tumour-bearing",,tracer uptake,3.9 %ID/g
CSCC[C@@H]1NC(=O)[C@@H]2CSSC[C@H](NC(=O)[C@H](CO)NC(=O)[C@H](C)N)C(=O)N[C@@H](CCCNC(=N)N)C(=O)N[C@@H]([C@@H](C)O)C(=O)N3CCC[C@H]3C(=O)N[C@@H](CCCCN)C(=O)N[C@@H](CC(=O)O)C(=O)N[C@H]3CSSC[C@H](NC(=O)[C@H](CCCCN)NC(=O)[C@H](CCCNC(=N)N)NC(=O)[C@H](CC(N)=O)NC1=O)C(=O)N[C@@H](CCCCN)C(=O)N[C@H]1CSSC[C@H](NC(=O)[C@@H]4CCCN4C(=O)[C@H](CC(=O)O)NC(=O)[C@H](C)NC3=O)C(=O)N[C@@H](C)C(=O)N[C@@H](CCCCN)C(=O)N[C@@H](CCC(=O)O)C(=O)N[C@@H]([C@@H](C)O)C(=O)NCC(=O)N[C@@H](CSSC[C@@H](C(N)=O)NC(=O)[C@H](CCCNC(=N)N)NC(=O)[C@H](CC(N)=O)NC1=O)C(=O)N1CCC[C@H]1C(=O)N[C@@H](Cc1ccc(O)cc1)C(=O)NCC(=O)N[C@@H](CCCCN)C(=O)N2,,,"DA rat, pristane-induced arthritis, serum","subcutaneous, single 0.1 mg/kg at onset, end of 21-day trial",,direct bilirubin,0.002 mg/dL
COc1ccc(F)cc1S(=O)(=O)Nc1cnc2c(c1)C(=O)NCCO2,,,"C57BL/6J mice, plasma","oral, 1 mg/kg",,AUC(0-t),325 ± 73 ng‧h/mL
CC[C@H](C)C(=O)N1CCC(NC(=O)Nc2ccc(OC(F)(F)F)c(F)c2)CC1,,,"human, plasma","oral, 8 mg, single dose, healthy volunteers",,Vd/F,178 L
F[P-](F)(F)(F)(F)F.F[P-](F)(F)(F)(F)F.[Ru+2].c1ccc(-c2ccccn2)nc1.c1ccc(-c2ccccn2)nc1.c1csc(-c2ccc(-c3ccc(-c4cc5cccnc5c5ncccc45)s3)s2)c1,,transient absorption,degassed acetonitrile,,,triplet lifetime,27 µs
CN(C)c1ccc(C(=O)NCCCCN2CCN(c3ccccc3O[11CH3])CC2)cc1,,,"Sprague Dawley rat, male, total brain","intravenous, 30 min",,brain uptake,0.107 %ID/g
COC(=O)C[C@](O)(CCCC(C)(C)OC(C)=O)C(=O)O[C@@H]1C(OC)=C[C@]23CCCN2CCc2cc4c(cc2[C@H]13)OCO4,,,"CD1 mice, plasma","subcutaneous, 1 mg/kg, 0.5 h",,concentration,668 ng/mL
CSCC[C@H](NC(=O)CNC(=O)[C@H](CC(=O)O)NC(=O)[C@@H](NC(=O)[C@@H](NC(=O)[C@@H](NC(=O)CNC(=O)[C@H](CCC(N)=O)NC(=O)[C@H](CCSC)NC(=O)[C@H](CC(=O)O)NC(=O)[C@H](C)NC(=O)[C@H](C)NC(=O)[C@@H](NC(=O)[C@H](CO)NC(=O)[C@@H](N)CC(C)C)[C@@H](C)O)C(C)C)C(C)C)[C@@H](C)O)C(=O)N[C@@H](C)C(=O)N[C@@H](CO)C(=O)NCC(=O)N[C@@H](CC(C)C)C(=O)N[C@@H](CC(=O)O)C(=O)N[C@@H](CCCCN)C(=O)N[C@@H](CC(=O)O)C(=O)N[C@@H](Cc1ccc(O)cc1)C(=O)N[C@@H](CC(C)C)C(=O)N[C@@H](CCCCN)C(=O)N1CCC[C@H]1C(=O)N[C@@H](CC(=O)O)C(=O)N[C@@H](CC(=O)O)C(=O)O,,,"human, serum","intravenous, 2.5 mg/kg, patients, infusion",,AUC(0-t),1930 ng·h/mL
CSCC[C@H](NC(=O)[C@H](CC(N)=O)NC(=O)[C@@H](N)Cc1ccccc1)C(=O)N[C@@H](CCC(N)=O)C(=O)N[C@@H](C)C(=O)N[C@@H](CCC(N)=O)C(=O)N[C@@H](CCCNC(=N)N)C(=O)N[C@@H](CCCNC(=N)N)C(=O)N[C@@H](Cc1ccccc1)C(=O)N[C@@H](Cc1ccc(O)cc1)C(=O)N[C@@H](CCC(=O)O)C(=O)N[C@@H](C)C(=O)N[C@@H](CC(C)C)C(=O)N[C@@H](Cc1c[nH]cn1)C(=O)N[C@@H](CC(=O)O)C(=O)NCC(=O)NCC(=O)NCC(=O)NCC(=O)N[C@@H](CO)C(=O)N[C@@H](C)C(=O)N[C@@H](CCC(=O)O)C(=O)N[C@@H](C)C(=O)N[C@@H](CCC(=O)O)C(=O)N[C@@H](C)C(=O)N[C@@H](CCCCN)C(=O)N[C@@H](C)C(=O)N[C@@H](CCCCN)C(=O)N[C@@H](C)C(=O)N[C@@H](CCC(=O)O)C(=O)N[C@@H](C)C(=O)N[C@@H](CCC(=O)O)C(=O)N[C@@H](C)C(=O)N[C@@H](CCCCN)C(=O)N[C@@H](C)C(=O)N[C@@H](CCCCN)C(=O)O,,,EAK peptide fibrils,"overnight, 37 °C, PBS, together with: EAK to compound ratio 10:1",,incorporation into fibrils,23%
COc1cc2ccnc(Cc3ccc(O[11CH3])c(OC)c3)c2cc1OC,,,"Sprague-Dawley rat, hippocampus","i.v., 30 min",,brain uptake,0.038 %ID/g
CCCC[C@H](NC(=O)CN1CCC(NC(=O)CN2CCN(CC(=O)O)CCN(CC(=O)O)CCN(CC(=O)O)CC2)CC1)C(=O)N[C@H]1CC(=O)NCCCC[C@@H](C(N)=O)NC(=O)[C@H](Cc2c[nH]c3ccccc23)NC(=O)[C@H](CCCNC(=N)N)NC(=O)[C@@H](Cc2ccccc2)NC(=O)[C@H](Cc2c[nH]cn2)NC1=O [gallium-68 labelled],,PET/CT,"human metastatic melanoma patients, brain","intravenous, 150 MBq, 60 min",,SUVmax,0.05
N=C(N)NCCC[C@@H]1NC(=O)[C@H](CCCCNC(=O)CCOCCOCCOCCOCCNC(=O)CN2CCN(CC(=O)O)CCN(CC(=O)O)CCN(CC(=O)O)CC2)NC(=O)[C@@H](Cc2ccccc2)NC(=O)[C@H](CC(=O)O)NC(=O)CNC1=O [indium-111 labelled],,,female athymic nude mouse,"intravenous, 3 µCi, 72 h, U-87 MG glioma xenograft",reference: tumour over muscle,tumour to muscle ratio,7.12 ± 2.37
CSCC[C@H](NC(=O)[C@H](CC(C)C)NC(=O)CNC(=O)[C@@H](NC(=O)[C@H](Cc1ccccc1)NC(=O)[C@H](CO)NC(=O)[C@H](CC(=O)O)NC(=O)[C@@H](NC(=O)[C@H](CCCCN)NC(=O)[C@@H](N)Cc1cnc[nH]1)[C@@H](C)O)C(C)C)C(N)=O,,,diet-induced obese mice,"subcutaneous, 1 mg/kg twice daily",,tolerability,not toxic
